Published values gathered from unrelated publications.
Protocols differ between the studies behind these lines. Numbers after ± are the reported error. ≈ marks a conversion by molar mass, not a printed value.

Structure (SMILES) = Cc1sc2ncn(CC(=O)N3CCCC3)c(=O)c2c1-c1cccc(Br)c1; target = NMDA receptor, mouse; test = single-channel current, outside-out patch; system = cortical neurons; setting = 50 µM, together with: Ca2+ 1.25 mM; quantity = γ2 conductance level area; value = 38%
Structure (SMILES) = Cc1ccc(-n2nc(C3CC3)nc2C2CCCN(C(N)=O)C2)cc1C (stereo not shown); target = recombinant aromatase CYP19; test = absorption spectroscopy; setting = 100 µM, no androstenedione; quantity = Soret peak wavelength; value = 420 nm
Structure (SMILES) = O=c1c2sccc2n(CC2COc3ccccc3O2)c(=O)n1O (stereo not shown); target = Kluyveromyces lactis XRN1; test = inhibitor; setting = 100 µM, 37 °C, together with: RNA:DNA duplex 500 nM; quantity = inhibition; value = no effect
Structure (SMILES) = Cn1c(=O)oc2ccc(-c3ccc(CC(C#N)NC(=O)C4CNCCCO4)c(F)c3)cc21 (stereo not shown); target = neutrophil elastase (human); test = inhibitor; system = human, whole blood; setting = 20 mg once daily, 31 days after discontinuation, normalised to neutrophil count; quantity = reduction in NE activity; value = 64.9%
Structure (SMILES) = CCCCC/C=C/C(=O)CCc1ccc(O)c(OC)c1; target = mAb 2-LD2; test = antibody binding, indirect competitive ELISA; setting = together with: coating antigen hapten 1-OVA; quantity = IC50; value = 0.0117 µg/mL (≈ 0.0424 µM)
Structure (SMILES) = CC[C@H](C)[C@H](NC(=O)[C@H](Cc1ccccc1)NC(=O)[C@@H](NC(=O)[C@@H](NC(=O)[C@H](CC(C)C)NC(=O)[C@H](CCCCN)NC(=O)[C@@H](N)CCCCN)[C@@H](C)CC)[C@@H](C)O)C(=O)N[C@@H](CC(C)C)C(=O)N[C@@H](CCCCN)C(=O)N[C@@H](CCCCN)C(=O)N[C@H](C(=O)N[C@@H](CCCNC(=N)N)C(=O)N[C@@H](CCC(=O)O)C(=O)N[C@@H](CCCCN)C(=O)N[C@@H](CCCCN)C(=O)N[C@@H](CCCCN)C(=O)N[C@@H](CCC(=O)O)C(=O)N[C@@H](CS)C(=O)N[C@@H](CC(C)C)C(=O)N[C@H](C(=O)O)C(C)C)[C@@H](C)O; target = voltage-gated sodium channel; test = resurgent sodium current, kinetic model fit; system = mouse CA3 neurons; setting = 200 µM, membrane potential -30 mV; quantity = rate constant kIO; value = 8 s⁻¹
Structure (SMILES) = O=C(O)c1ccc(/C=C2\SC(=S)N(Cc3cccc(C(F)(F)F)c3)C2=O)cc1; target = NLRP3 Walker B mutant; test = biotin pull-down; system = HEK-293T lysate; setting = concentration not given; scale = relative to: wild type; quantity = NLRP3 binding; value = no effect
Structure (SMILES) = CNC(=O)C1CCN(c2ccccc2NC(=O)c2ccc(-c3cc(O)ccc3C)c(C)n2)CC1; target = human EPHA2/EPHA4; test = phosphorylation, inhibitor, Western blot; system = 12Z; setting = 15 min pretreatment, together with: EFNA5 0.5 µg/mL; scale = lowest concentration; quantity = significant inhibitory concentration; value = 1 nM
Structure (SMILES) = CC[C@H](C)[C@H](NC(=O)[C@H](CC(C)C)NC(=O)[C@H](CCCCN)NC(=O)[C@@H](N)CCCCN)C(=O)N[C@H](C(=O)N[C@@H](Cc1ccccc1)C(=O)N[C@H](C(=O)N1CCC[C@H]1C(=O)N[C@@H](CCCCN)C(=O)N[C@@H](CCCCN)C(=O)N[C@H](C(=O)N[C@@H](CCCNC(=N)N)C(=O)N[C@@H](CCC(=O)O)C(=O)N[C@@H](CCCCN)C(=O)N[C@@H](CCCCN)C(=O)N[C@@H](CCCCN)C(=O)N[C@@H](CCC(=O)O)C(=O)N[C@@H](CS)C(=O)N[C@@H](CC(C)C)C(=O)N[C@H](C(=O)O)C(C)C)[C@@H](C)O)[C@@H](C)CC)[C@@H](C)O; target = voltage-gated sodium channel; test = resurgent sodium current, kinetic model fit; system = mouse CA3 neurons; setting = 200 µM, membrane potential -10 mV; quantity = rate constant kOI; value = 109 s⁻¹
Structure (SMILES) = O=C(c1ccc(F)cc1)N1CCCC(c2nc(-c3cccs3)no2)C1 (stereo not shown); target = mGluR5; test = calcium fluorescence, positive allosteric modulator; system = mGluR5-expressing cells; setting = together with: glutamate EC20; scale = relative to: maximal glutamate response; quantity = Emax; value = 98 ± 4%
